Literature values as cited in several papers.
Each numbered part shows a few of the values that one paper quotes. ± marks the error that the study gave.

Series 1 — Molecule: omiganan
organism	strain	notes	MIC [µM]
Escherichia coli	ATCC 25922	literature value	12.5
Klebsiella pneumoniae	ATCC 700603	literature value	25
Pseudomonas aeruginosa	ATCC 27853	literature value	12.5
Enterobacter sp.	KCTC 2625	–	< 3.1
Bacillus subtilis	KCTC 3068	literature value	6.3
Acinetobacter baumannii	ATCC 19606	literature value	12.5

Mixed results
B1: CX3CL1, human; sequence looked up; chain QHHGVTKCNITCSKMTSKIPVALLIHYQQNQASCGKRAIILETRQHRLFCADPKEQWVKDAMQHLDRQAAALTRNGGTFEKQIGEVKPRTTPAAGGMDESVVLEPEATGESSSLEPTPSSQEAQRALGTSPELPTGVTGSSGTRLPPTPKAQDGGPVGTELFRVPPVSTAATWQSSAPHQPGPSLWAEAKTSEAPSTQDPSTQASTASSPAPEENAPSEGQRVWGQGQSPRPENSLEREEMGPVPAHTDAFQDWGPGSMAHVSVVPVSSEGTPSREPVASGSWTPKAEEPIHATMDPQRLGVLITPVPDAQAATRRQAVGLLAFLGLLFCLGVAMFTYQSLQGCPRKMAGEMAEGLRYIPRSCGSNSYVLVPV
Molecule	tested on	assay	test system	measurement	result
CCL3	US28 Y16F	binding, radioligand competition	–	Kd	12 nM
GTVLCCETCFLLSCCKIGCTCTRVV	Staphylococcus aureus	–	peptide	MIC	> 128 µM
CCL5	US28 F14A	binding, radioligand competition	–	Kd	5.7 nM
FFFHIIHHIFHLIRRLLHRIRRRRRRHR	Staphylococcus aureus	–	peptide	MIC	> 128 µM
human CCL11	CCR3 D19A mutant	–	–	IC50	6.76 nM
VTATNAFNCRKERGFCRFGGCPFPLIHIGKCGPA	Escherichia coli	–	peptide	MIC	64 µM
B1 (CX3CL1, human)	US28 E13A	binding, radioligand competition	–	Kd	0.5 nM
GSGCCGQGSCCGRWSGMKNIRVLWCGGCC	Staphylococcus aureus	–	peptide	MIC	> 128 µM
VVIA	Aβ42-induced neurotoxicity	inhibitor, LDH release	peptide, differentiated PC-12	IC50	47000 ± 14000 nM

A few entries again (mixed results):
Molecule	tested on	assay	test system	measurement	result
CCL3	US28 Y16F	binding, radioligand competition	–	Kd	12 nM
